Published values pooled from the literature.
Each line is one published result; not all experiments were run side by side. Values joined by “and” are separate records of one study, mostly repeats; a detail may differ. Numbers after ± are the reported error.
TRPM8: Transient receptor potential cation channel subfamily M member 8 (TRPM8, Homo sapiens, UniProt Q7Z2W7)
spsB: Signal peptidase IB (spsB, Staphylococcus aureus, UniProt Q5HHB9)
CAMKK2: Calcium/calmodulin-dependent protein kinase kinase 2 (CAMKK2, Homo sapiens, UniProt Q96RR4)
LCK: Tyrosine-protein kinase Lck (LCK, Homo sapiens, UniProt P06239)

Structure (SMILES) | tested on | test | test system | conditions | scale | measurement | value
Cn1cc(/C=C2\C(=O)Nc3ccc(S(N)(=O)=O)cc32)c2ccccc21 | TRPM8 | antagonist | HEK293 | 5 µM | reference: control | remaining activity | 103 ± 9.27%
COc1cc(Nc2ncc3c(n2)-c2ccc(Cl)cc2C(c2c(F)cccc2OC)=NC3)ccc1C(=O)O | MAP2K2 | kinase activity | – | 1 µM | – | remaining activity | 102%
Cc1ccc(S(=O)(=O)/C=C/C#N)cc1 | TRPM8 | antagonist | HEK293 | 5 µM | reference: control | remaining activity | 94.3 ± 8.51%
Cn1cc(-c2ccc(-c3cncc(Cl)c3N3CCC4(CCNC4=O)CC3)cc2)cn1 | COLO 205 | gene expression, microarray, refers to: DUSP6 mRNA | – | concentration not given, 2 h | reference: untreated cells | log2 fold change | 2.98
CCc1ccc(NC(=O)Nc2ccc(Cl)c(C(F)(F)F)c2)cc1 | spsB | peptidase activity, activator, FRET peptide cleavage | Staphylococcus aureus, membranes | 50 µM | reference: DMSO | remaining activity | 179%
CCN(CCO)CCCC(C)Nc1ccnc2cc(Cl)ccc12 (stereo not drawn) | Potassium voltage-gated channel subfamily KQT member 1, with KCNE1 (KCNQ1, Homo sapiens, UniProt P51787) | IKs current | HEK293 | 100 µM, step to +20 mV | – | remaining activity | 95%
O=C(Nc1cccc(C(F)(F)F)c1)Nc1ccc2c(c1)OC(F)(F)O2 | spsB | peptidase activity, activator, FRET peptide cleavage | Staphylococcus aureus, membranes | 10 µM | reference: DMSO | remaining activity | 127%
COc1cc(N2CCN(C)CC2)ccc1Nc1nc(N)n(C(=O)NCc2ccccc2S(=O)(=O)C(C)C)n1 | ROCK1 (Homo sapiens, UniProt Q13464) | enzyme activity | – | 10 µM | reference: control | remaining activity | 9.6%
CCc1noc(CSc2nnc(COc3ccccc3-c3ccccc3)n2CCOC)n1 | CXCR4 (Homo sapiens, UniProt P61073) | arrestin recruitment, antagonist, DiscoverX arrestin | – | 30 µM | reference: untreated | remaining activity | 0.26% and -0.21%
O=C1Nc2ccc(Cl)cc2C1=Cc1cc(Cl)c(O)c(Cl)c1 | TRPM8 | antagonist | HEK293 | 5 µM | reference: control | remaining activity | 91.5 ± 4.69%
C=CC(=O)N1CCC[C@@H](n2nc(-c3ccc(Oc4ccccc4)cc3)c3c(N)ncnc32)C1 | CAMKK2 | kinase activity, inhibitor, HotSpot radiometric | – | 100 nM, together with: ATP 10 µM | – | remaining activity | 102.9 ± 0.6%
COc1cc(-c2cncc3c2CN(C)Cc2cc(N4CCNCC4)ccc2-3)cc(OC)c1OC | MYLK2 (Homo sapiens, UniProt Q9H1R3) | kinase activity | – | 1 µM, human enzyme, together with: ATP 10 µM | reference: DMSO control | remaining activity | 105%
O=C(NC1CCC1)c1ccc2nc(-c3cccc(NS(=O)(=O)NCCN4CCCCC4)c3)cn2c1 | MAP3K12 (Homo sapiens, UniProt Q12852) | enzyme activity | – | 10 µM | – | remaining activity | 90%
c1ccc2c(-c3ccncc3)c[nH]c2c1 | TRPM8 | antagonist | HEK293 | 5 µM | reference: control | remaining activity | 80.8 ± 12.5%
O=C(O)c1ccc(Nc2ncc3c(n2)-c2ccc(Cl)cc2C(c2c(F)cccc2F)=NC3)cc1 | PKCδ(h) | kinase activity | – | 1 µM | – | remaining activity | 109%
COc1ccc(F)cc1C(=O)NCc1ccc(-c2nn([C@@H](C)C(F)(F)F)c(N)c2C(N)=O)cc1 | LCK | kinase activity, inhibitor, HotSpot radiometric | – | 1000 nM, together with: ATP at Km | – | remaining activity | 63.2 ± 3.8%
NC/C(=C\F)COc1cccc(Cn2c(=S)[nH]c(=O)c3[nH]cnc32)c1 | Peroxidasin homolog (PXDN, Homo sapiens, UniProt Q92626) | Amplex UltraRed | – | 30 µM, mean of replicates | reference: control | remaining activity | 15.6%
O=C1NC(=O)c2cc(Nc3ccc(F)cc3)c(Nc3ccc(F)cc3)cc21 | TRPM8 | antagonist | HEK293 | 5 µM | reference: control | remaining activity | 91.7 ± 4.41%

Structure (SMILES) | tested on | test | test system | conditions | scale | measurement | value
Cc1cccc(C)c1NC(=O)Nc1ccc(Cl)c(C(F)(F)F)c1 | spsB | peptidase activity, activator, FRET peptide cleavage | Staphylococcus aureus, membranes | 50 µM | reference: DMSO | remaining activity | 106%
C[C@@H](Oc1ccc(S(C)(=O)=O)cc1C(=O)N1C[C@@H]2C[C@]2(c2cc(C(F)(F)F)on2)C1)C(F)(F)F | SLC6A9 (Homo sapiens, UniProt P48067) | glycine uptake, inhibitor, [3H]glycine uptake | – | 0.003 µM, log concentration 3, together with: [3H]glycine, 3.5 mg/mL methyl-β-cyclodextrin | reference: no inhibitor | remaining activity | 17.1%
O=C(NC(NC(=S)Nc1ccc(F)c([N+](=O)[O-])c1)C(Cl)(Cl)Cl)C(c1ccccc1)c1ccccc1 (stereo not drawn) | TRPM8 | antagonist | HEK293 | 5 µM | reference: control | remaining activity | 92.1 ± 7.43%
C=CC(=O)N1CCC[C@@H](n2nc(-c3ccc(Oc4ccccc4)cc3)c3c(N)ncnc32)C1 | LCK | – | – | 10 µM | – | remaining activity | 32.5%
CNc1ncc2c(/C=C/C(=O)N3CCC(OC)CC3)nn(Cc3cccc(C(F)(F)F)c3)c2n1 | MAP4K2 (Homo sapiens, UniProt Q12851) | kinase activity, inhibitor | – | 1 µM | reference: untreated control | remaining activity | 80%
COc1ccc(CNc2nc(N(CCO)CCO)nc3c2ncn3C(C)C)cc1 | TRPM8 | antagonist | HEK293 | 5 µM | reference: control | remaining activity | 84.8 ± 2.64%
O=C(Nc1ccc(Cl)c(C(F)(F)F)c1)N1CCC(F)(F)CC1 | spsB | peptidase activity, activator, FRET peptide cleavage | Staphylococcus aureus, membranes | 50 µM | reference: DMSO | remaining activity | 125%
CC#CC(=O)N1CCC[C@H]1c1nc(-c2ccc(C(=O)Nc3ccccn3)cc2)c2c(N)nccn12 | CAMKK2 | kinase activity, inhibitor, HotSpot radiometric | – | 100 nM, together with: ATP 10 µM | – | remaining activity | 102.9 ± 0.8%
O=C(Nc1ccc2c(c1)CCC2)Nc1ccc(Cl)c(C(F)(F)F)c1 | spsB | peptidase activity, activator, FRET peptide cleavage | Staphylococcus aureus, membranes | 10 µM | reference: DMSO | remaining activity | 123%
O=C1NC(=O)/C(=C/c2ccc(-c3ccc(F)cc3O)o2)S1 | CAMKK2 | enzyme activity | – | 10 µM | – | remaining activity | 51%
O=C(Nc1ccc(N2CCOCC2)cc1)Nc1ccc(Cl)c(C(F)(F)F)c1 | spsB | peptidase activity, activator, FRET peptide cleavage | Staphylococcus aureus, membranes | 100 µM | reference: DMSO | remaining activity | 195%
Cc1cc(Nc2cc(N3CCN(C)CC3)nc(Sc3ccc(NC(=O)C4CC4)cc3)n2)[nH]n1 | PLK3 (Homo sapiens, UniProt Q9H4B4) | kinase activity, KinaseProfiler | – | 0.03 µM, species human | reference: control | remaining activity | 105%
COc1cc(N2CCN(C)CC2)ccc1Nc1nc(N)n(C(=S)NCc2c(Cl)cccc2Cl)n1 | MYLK4 (Homo sapiens, UniProt Q86YV6) | enzyme activity | – | 10 µM | reference: control | remaining activity | 8.5%
CNC(=O)c1ccc(NC(=O)Nc2ccc(Cl)c(C(F)(F)F)c2)cc1 | spsB | peptidase activity, activator, FRET peptide cleavage | Staphylococcus aureus, membranes | 10 µM | reference: DMSO | remaining activity | 111%
C=CC(=O)N1CCC([C@@H]2CCNc3c(C(N)=O)c(-c4ccc(Oc5ccccc5)cc4)nn32)CC1 | MAP3K11 (Homo sapiens, UniProt Q16584) | kinase activity, inhibitor, HotSpot radiometric | – | 100 nM, together with: ATP 10 µM | – | remaining activity | 78.4 ± 0.8%
COc1cc(NC(=O)Nc2ccc(Cl)c(C(F)(F)F)c2)cc(OC)c1OC | spsB | peptidase activity, activator, FRET peptide cleavage | Staphylococcus aureus, membranes | 50 µM | reference: DMSO | remaining activity | 170%
O=c1c2ccccc2[nH]c(=S)n1CCN1CCC(=C(c2ccc(F)cc2)c2ccc(F)cc2)CC1 | TRPM8 | antagonist | HEK293 | 5 µM | reference: control | remaining activity | 95.1 ± 9.87%
COc1cc(F)ccc1-c1ncnc(Nc2cccc(C[S@](C)(=N)=O)c2)n1 | PRKCG (Homo sapiens, UniProt P05129) | kinase activity | – | 10 µM, together with: 10 µM ATP | – | remaining activity | 97%

Repeated from above:
Structure (SMILES) | tested on | test | test system | conditions | scale | measurement | value
O=C(Nc1ccc2c(c1)CCC2)Nc1ccc(Cl)c(C(F)(F)F)c1 | spsB | peptidase activity, activator, FRET peptide cleavage | Staphylococcus aureus, membranes | 10 µM | reference: DMSO | remaining activity | 123%
COc1cc(F)ccc1-c1ncnc(Nc2cccc(C[S@](C)(=N)=O)c2)n1 | PRKCG (Homo sapiens, UniProt P05129) | kinase activity | – | 10 µM, together with: 10 µM ATP | – | remaining activity | 97%
NC/C(=C\F)COc1cccc(Cn2c(=S)[nH]c(=O)c3[nH]cnc32)c1 | Peroxidasin homolog (PXDN, Homo sapiens, UniProt Q92626) | Amplex UltraRed | – | 30 µM, mean of replicates | reference: control | remaining activity | 15.6%
